Measurements collected from several papers.
CSNK1A1: Casein kinase I isoform alpha (CSNK1A1, Homo sapiens, UniProt P48729)
UniProt P48729, sequence (whole entry, looked up): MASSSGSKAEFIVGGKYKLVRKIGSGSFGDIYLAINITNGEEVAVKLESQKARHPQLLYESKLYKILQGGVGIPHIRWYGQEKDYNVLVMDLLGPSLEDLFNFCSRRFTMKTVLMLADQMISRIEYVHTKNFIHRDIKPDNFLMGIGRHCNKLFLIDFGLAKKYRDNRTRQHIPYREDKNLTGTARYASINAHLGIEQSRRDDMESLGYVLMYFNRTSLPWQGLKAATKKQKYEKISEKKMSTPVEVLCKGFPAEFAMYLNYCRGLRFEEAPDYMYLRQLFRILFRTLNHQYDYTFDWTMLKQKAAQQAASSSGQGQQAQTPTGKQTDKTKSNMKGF
KDM4B: Lysine-specific demethylase 4B (KDM4B, Homo sapiens, UniProt O94953)
UniProt O94953, sequence (whole entry, looked up): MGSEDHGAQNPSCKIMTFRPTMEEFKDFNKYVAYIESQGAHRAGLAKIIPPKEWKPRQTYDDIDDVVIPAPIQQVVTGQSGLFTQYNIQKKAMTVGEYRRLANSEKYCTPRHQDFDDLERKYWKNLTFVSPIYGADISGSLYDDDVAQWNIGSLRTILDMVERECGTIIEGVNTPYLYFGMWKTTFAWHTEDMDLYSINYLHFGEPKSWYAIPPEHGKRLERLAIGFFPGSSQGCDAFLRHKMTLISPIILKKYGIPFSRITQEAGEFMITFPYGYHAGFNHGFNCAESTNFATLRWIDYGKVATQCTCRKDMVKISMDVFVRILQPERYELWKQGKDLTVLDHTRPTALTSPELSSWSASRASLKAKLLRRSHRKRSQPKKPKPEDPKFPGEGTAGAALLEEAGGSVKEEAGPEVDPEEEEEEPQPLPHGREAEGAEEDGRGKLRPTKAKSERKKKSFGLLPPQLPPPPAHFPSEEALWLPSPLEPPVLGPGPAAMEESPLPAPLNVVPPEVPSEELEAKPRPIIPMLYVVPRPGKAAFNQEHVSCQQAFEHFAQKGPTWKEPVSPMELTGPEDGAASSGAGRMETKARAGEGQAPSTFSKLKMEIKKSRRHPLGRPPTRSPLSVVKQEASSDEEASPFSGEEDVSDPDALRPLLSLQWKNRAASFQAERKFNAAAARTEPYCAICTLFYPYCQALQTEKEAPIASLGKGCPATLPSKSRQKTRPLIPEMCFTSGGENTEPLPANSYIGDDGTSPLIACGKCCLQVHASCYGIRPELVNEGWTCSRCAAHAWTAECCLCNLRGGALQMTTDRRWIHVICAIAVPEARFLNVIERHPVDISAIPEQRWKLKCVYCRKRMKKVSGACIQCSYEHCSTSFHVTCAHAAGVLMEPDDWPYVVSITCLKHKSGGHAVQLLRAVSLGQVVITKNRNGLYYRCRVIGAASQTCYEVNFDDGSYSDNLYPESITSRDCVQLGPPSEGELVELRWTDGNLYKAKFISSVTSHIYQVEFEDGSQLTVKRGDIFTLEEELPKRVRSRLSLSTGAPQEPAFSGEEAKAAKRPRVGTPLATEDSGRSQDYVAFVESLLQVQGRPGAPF
CDC42BPB: Serine/threonine-protein kinase MRCK beta (CDC42BPB, Homo sapiens, UniProt Q9Y5S2)
UniProt Q9Y5S2, sequence (whole entry, looked up): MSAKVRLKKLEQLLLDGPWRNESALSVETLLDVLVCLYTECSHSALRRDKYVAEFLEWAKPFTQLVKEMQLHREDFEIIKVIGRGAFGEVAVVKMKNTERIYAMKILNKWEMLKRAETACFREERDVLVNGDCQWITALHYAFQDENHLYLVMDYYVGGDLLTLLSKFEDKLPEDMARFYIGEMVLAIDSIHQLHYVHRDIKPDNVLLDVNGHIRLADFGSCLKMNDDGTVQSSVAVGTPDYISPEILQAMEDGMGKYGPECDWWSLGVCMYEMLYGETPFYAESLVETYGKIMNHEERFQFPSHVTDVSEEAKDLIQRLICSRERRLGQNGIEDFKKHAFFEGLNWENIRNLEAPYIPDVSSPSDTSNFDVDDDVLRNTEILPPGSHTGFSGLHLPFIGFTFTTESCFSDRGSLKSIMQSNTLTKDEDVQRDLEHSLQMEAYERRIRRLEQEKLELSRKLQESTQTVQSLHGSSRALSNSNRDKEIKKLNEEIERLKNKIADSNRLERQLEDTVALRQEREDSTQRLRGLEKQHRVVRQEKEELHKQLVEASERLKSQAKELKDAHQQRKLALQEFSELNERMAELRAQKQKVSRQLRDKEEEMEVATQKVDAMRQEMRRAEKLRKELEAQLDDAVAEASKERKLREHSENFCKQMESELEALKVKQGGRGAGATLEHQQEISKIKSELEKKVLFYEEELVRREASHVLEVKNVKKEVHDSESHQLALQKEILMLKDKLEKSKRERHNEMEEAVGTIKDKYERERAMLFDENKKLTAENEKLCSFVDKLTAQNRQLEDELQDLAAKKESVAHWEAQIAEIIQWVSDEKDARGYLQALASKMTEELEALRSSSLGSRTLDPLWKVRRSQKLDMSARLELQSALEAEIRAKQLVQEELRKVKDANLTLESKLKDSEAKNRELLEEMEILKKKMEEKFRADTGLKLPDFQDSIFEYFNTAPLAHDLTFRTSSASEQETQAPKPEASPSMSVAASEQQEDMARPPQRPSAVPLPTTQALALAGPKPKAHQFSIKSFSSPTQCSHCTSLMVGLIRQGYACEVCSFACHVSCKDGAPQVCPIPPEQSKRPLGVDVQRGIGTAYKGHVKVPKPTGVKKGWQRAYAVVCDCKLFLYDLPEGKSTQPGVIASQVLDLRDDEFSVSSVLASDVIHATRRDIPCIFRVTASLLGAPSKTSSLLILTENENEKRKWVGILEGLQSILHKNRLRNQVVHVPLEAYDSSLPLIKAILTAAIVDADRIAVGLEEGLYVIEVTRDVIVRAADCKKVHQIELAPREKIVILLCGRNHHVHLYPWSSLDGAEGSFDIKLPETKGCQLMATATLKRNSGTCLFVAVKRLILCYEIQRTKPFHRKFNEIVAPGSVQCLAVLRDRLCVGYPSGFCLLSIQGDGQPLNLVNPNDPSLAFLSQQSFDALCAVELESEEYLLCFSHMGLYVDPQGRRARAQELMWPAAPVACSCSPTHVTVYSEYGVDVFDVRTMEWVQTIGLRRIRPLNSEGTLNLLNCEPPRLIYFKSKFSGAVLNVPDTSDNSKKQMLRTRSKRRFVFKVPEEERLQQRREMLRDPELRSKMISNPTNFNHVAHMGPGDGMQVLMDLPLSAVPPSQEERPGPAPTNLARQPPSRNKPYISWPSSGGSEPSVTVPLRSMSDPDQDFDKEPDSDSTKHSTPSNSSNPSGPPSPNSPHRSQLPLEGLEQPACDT
EPHB4: Ephrin type-B receptor 4 (EPHB4, Homo sapiens, UniProt P54760)
UniProt P54760, sequence (whole entry, looked up): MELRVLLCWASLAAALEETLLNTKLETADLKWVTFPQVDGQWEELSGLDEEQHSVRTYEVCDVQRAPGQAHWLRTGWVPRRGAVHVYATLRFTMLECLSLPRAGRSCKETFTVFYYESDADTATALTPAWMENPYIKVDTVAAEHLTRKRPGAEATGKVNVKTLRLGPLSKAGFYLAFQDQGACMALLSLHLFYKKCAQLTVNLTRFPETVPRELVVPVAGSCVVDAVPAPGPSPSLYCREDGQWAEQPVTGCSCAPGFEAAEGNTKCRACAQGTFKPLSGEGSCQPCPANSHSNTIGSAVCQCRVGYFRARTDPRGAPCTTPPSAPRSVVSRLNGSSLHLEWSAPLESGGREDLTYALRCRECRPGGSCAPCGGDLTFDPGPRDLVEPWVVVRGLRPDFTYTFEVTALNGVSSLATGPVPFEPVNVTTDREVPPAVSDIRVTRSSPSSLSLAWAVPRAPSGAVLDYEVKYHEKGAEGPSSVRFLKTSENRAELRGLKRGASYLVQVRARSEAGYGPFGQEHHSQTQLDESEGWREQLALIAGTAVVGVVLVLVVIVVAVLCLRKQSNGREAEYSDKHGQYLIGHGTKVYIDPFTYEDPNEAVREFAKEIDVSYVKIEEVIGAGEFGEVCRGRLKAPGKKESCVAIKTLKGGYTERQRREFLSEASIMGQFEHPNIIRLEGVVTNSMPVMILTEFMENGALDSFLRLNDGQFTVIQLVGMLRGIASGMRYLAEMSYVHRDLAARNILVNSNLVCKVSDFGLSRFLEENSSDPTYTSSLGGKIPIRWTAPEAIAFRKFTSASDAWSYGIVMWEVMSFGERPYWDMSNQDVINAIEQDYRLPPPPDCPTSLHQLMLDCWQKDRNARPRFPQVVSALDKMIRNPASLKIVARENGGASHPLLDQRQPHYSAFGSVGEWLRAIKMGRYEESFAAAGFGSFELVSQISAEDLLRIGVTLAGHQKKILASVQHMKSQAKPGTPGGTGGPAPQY
HUNK: Hormonally up-regulated neu tumor-associated kinase (HUNK, Homo sapiens, UniProt P57058)
UniProt P57058, sequence (whole entry, looked up): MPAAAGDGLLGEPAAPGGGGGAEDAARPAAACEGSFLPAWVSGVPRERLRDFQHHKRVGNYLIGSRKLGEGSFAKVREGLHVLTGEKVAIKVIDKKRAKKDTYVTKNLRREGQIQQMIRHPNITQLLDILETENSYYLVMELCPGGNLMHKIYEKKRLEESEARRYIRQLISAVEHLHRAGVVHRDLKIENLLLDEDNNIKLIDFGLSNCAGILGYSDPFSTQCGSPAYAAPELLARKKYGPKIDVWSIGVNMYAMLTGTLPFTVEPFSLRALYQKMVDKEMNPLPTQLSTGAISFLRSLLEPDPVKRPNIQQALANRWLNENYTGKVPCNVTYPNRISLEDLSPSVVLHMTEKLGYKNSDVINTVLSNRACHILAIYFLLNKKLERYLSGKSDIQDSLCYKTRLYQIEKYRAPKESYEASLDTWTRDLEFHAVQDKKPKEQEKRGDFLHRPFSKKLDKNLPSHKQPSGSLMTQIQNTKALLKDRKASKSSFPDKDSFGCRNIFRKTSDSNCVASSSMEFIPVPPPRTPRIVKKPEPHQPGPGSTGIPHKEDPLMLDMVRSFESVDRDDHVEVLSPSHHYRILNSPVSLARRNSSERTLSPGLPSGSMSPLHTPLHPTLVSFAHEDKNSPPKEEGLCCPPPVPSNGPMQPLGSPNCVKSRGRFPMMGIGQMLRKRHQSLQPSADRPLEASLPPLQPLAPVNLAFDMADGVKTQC

| SMILES | target or system | assay | test system | conditions | scale | endpoint | value |
| --- | --- | --- | --- | --- | --- | --- | --- |
| COc1ccc(Cl)cc1-c1cc(=O)[nH]c(=S)n1CC(N)=O | Myeloperoxidase (MPO, Homo sapiens, UniProt P05164) |  |  | 1.25 µM, 0.1 h |  | remaining activity | 46.3% |
| O=C(Nc1ccc(F)c(Br)c1)c1ccc2c(c1)C(=O)NC2=O | MAOB (Homo sapiens, UniProt P27338) | inhibitor |  | 4 × IC50, before dialysis | reference: control | remaining activity | 24.6% |
| COc1cc(Nc2ncc3c(n2)-c2ccc(Cl)cc2C(c2c(F)cccc2OC)=NC3)ccc1C(=O)O | NEK2 | kinase activity |  | 1 µM |  | remaining activity | 96% |
| O=C(NC1CCC1)c1ccc2nc(-c3cccc(NS(=O)(=O)NCCN4CCCCC4)c3)cn2c1 | MAP3K6 (Homo sapiens, UniProt O95382) | enzyme activity |  | 10 µM |  | remaining activity | 78% |
| CNc1ncc2c(/C=C/C(=O)N3CCC(OC)CC3)nn(Cc3cccc(C(F)(F)F)c3)c2n1 | GRK7 (Homo sapiens, UniProt Q8WTQ7) | kinase activity, inhibitor |  | 1 µM | reference: untreated control | remaining activity | 107% |
| Fc1ccc(-c2nc3cc(F)ccn3c2-c2ccncc2)cc1 | CSNK1A1 | kinase activity, inhibitor, ADP-Glo |  | 1.176 µM, 0.5 h |  | remaining activity | 16.4% |
| COC(=O)C(C(=O)C(=O)Nc1ccc([N+](=O)[O-])cc1[N+](=O)[O-])c1nc2ccc(Cl)cc2[nH]c1=O (stereo not shown) | KDM4B |  |  | concentration not given |  | remaining activity | 49% |
| c1cnc2ccc(Nc3nc(NC4CC4)c4nc[nH]c4n3)cc2c1 | PRKCD (Homo sapiens, UniProt Q05655) | kinase activity, inhibitor, SelectScreen kinase profiling |  | 1 µM | reference: control | remaining activity | 77% |
| Nc1nc2c(ncn2[C@H]2C[C@H](O)[C@@H](COP(=O)(O)OP(=O)(O)O)O2)c(=O)[nH]1 |  | binding, MIDAS equilibrium dialysis LC-MS | A2AR-BRIL thermostabilized | concentration not given | reference: no-protein control | log2 fold change | -0.494 |
| O=[N+]([O-])c1ccc(N=Nc2c(O)ccc3ccccc23)c([N+](=O)[O-])c1 | KDM4B |  |  | concentration not given |  | remaining activity | 90% |
| O=C(O)c1ccc(Nc2ncc3c(n2)-c2ccc(Cl)cc2C(c2c(F)cccc2F)=NC3)cc1 | human DDR2(h) | kinase activity |  | 1 µM |  | remaining activity | 87% |
| O=C(O)c1cc(=O)[nH]c(=O)[nH]1 |  | binding, MIDAS equilibrium dialysis LC-MS | A2AR-BRIL thermostabilized | concentration not given | reference: no-protein control | log2 fold change | -0.0106 |
| Cc1cc(Nc2cc(N3CCN(C)CC3)nc(Sc3ccc(NC(=O)C4CC4)cc3)n2)[nH]n1 | CDC42BPB | kinase activity, KinaseProfiler |  | 0.03 µM, species human | reference: control | remaining activity | 95% |
| N[C@@H]1CC[C@@H](c2ccc(Cl)c(Cl)c2)c2ccccc21 | SLC6A3 (Homo sapiens, UniProt Q01959, S422A) | dopamine uptake |  | 0.001 µM, 0.03333 h, S422A mutant, added: [3H]dopamine | reference: no inhibitor | remaining activity | 106% |
| C=CC(=O)N1CCC[C@@H](n2nc(-c3ccc(Oc4ccccc4)cc3)c3c(N)ncnc32)C1 | EPHB4 |  |  | 0.1 µM |  | remaining activity | 122% |
| COc1cc(N2CCN(C)CC2)ccc1Nc1nc(N)n(C(=O)NCc2c(Cl)cccc2Cl)n1 | Insulin receptor (INSR, Homo sapiens, UniProt P06213) | enzyme activity |  | 10 µM | reference: control | remaining activity | 4.6% |
| Nc1ncc2c(n1)-c1c([nH]c3ccc(-c4ccc(F)cc4)cc13)CCC2 | TAOK1 (Homo sapiens, UniProt Q7L7X3) | kinase activity, inhibitor, radiometric |  | 1 µM, added: ATP at Km |  | remaining activity | 87% |
| COc1cc(N2CCN(C)CC2)ccc1Nc1nc(N)n(C(=O)NCc2ccccc2S(=O)(=O)C(C)C)n1 | HUNK | enzyme activity |  | 10 µM | reference: control | remaining activity | 0.85% |
| COc1cc(-c2cncc3c2CN(C)Cc2cc(N4CCNCC4)ccc2-3)cc(OC)c1OC | EPHB4 | kinase activity |  | 1 µM, human enzyme, added: ATP 10 µM | reference: DMSO control | remaining activity | 101% |
| COc1cc(N2CCN(C)CC2)ccc1Nc1nc(N)n(C(=S)NCc2c(Cl)cccc2Cl)n1 | GRK4 (Homo sapiens, UniProt P32298) | enzyme activity |  | 10 µM | reference: control | remaining activity | 0.25% |
| COc1cc(F)ccc1-c1ncnc(Nc2cccc(C[S@](C)(=N)=O)c2)n1 | CDC42BPB | kinase activity |  | 10 µM, added: 10 µM ATP |  | remaining activity | 117% |
| CCOc1cc(N2CCN(C)CC2)ccc1Nc1nc(N)n(C(=O)NCc2ccccc2S(=O)(=O)C(C)C)n1 | HUNK | enzyme activity |  | 10 µM | reference: control | remaining activity | 1% |
| O=C1NC(=O)/C(=C/c2ccc(-c3ccc(F)cc3O)o2)S1 | EPHB4 | enzyme activity |  | 10 µM |  | remaining activity | 89% |
| Fc1ccc(-c2nn3cc(F)ccc3c2-c2ccncc2)cc1 | CSNK1A1 | kinase activity, inhibitor, ADP-Glo |  | 1.176 µM, 0.5 h |  | remaining activity | 42.3% |
| Cc1[nH]c(/C=C2\C(=O)Nc3ccc(F)cc32)c(C)c1C(=O)N[C@H]1CCN(C(=O)N(C)C)C1 | CHEK1 (Homo sapiens, UniProt O14757) | kinase activity, inhibitor |  | 0.1 µM | reference: no-compound control | remaining activity | 99% |

Some of these lines once more:
| SMILES | target or system | assay | test system | conditions | scale | endpoint | value |
| --- | --- | --- | --- | --- | --- | --- | --- |
| O=[N+]([O-])c1ccc(N=Nc2c(O)ccc3ccccc23)c([N+](=O)[O-])c1 | KDM4B |  |  | concentration not given |  | remaining activity | 90% |
| O=C(O)c1ccc(Nc2ncc3c(n2)-c2ccc(Cl)cc2C(c2c(F)cccc2F)=NC3)cc1 | human DDR2(h) | kinase activity |  | 1 µM |  | remaining activity | 87% |
| O=C(O)c1cc(=O)[nH]c(=O)[nH]1 |  | binding, MIDAS equilibrium dialysis LC-MS | A2AR-BRIL thermostabilized | concentration not given | reference: no-protein control | log2 fold change | -0.0106 |
| Cc1cc(Nc2cc(N3CCN(C)CC3)nc(Sc3ccc(NC(=O)C4CC4)cc3)n2)[nH]n1 | CDC42BPB | kinase activity, KinaseProfiler |  | 0.03 µM, species human | reference: control | remaining activity | 95% |
